Measured values pooled from the literature.
Each line is one published result; not all experiments were run side by side. Values joined by “and” are separate records of one study, mostly repeats; a detail may differ. Numbers after ± are the reported error.
BCHE: Cholinesterase (BCHE, Homo sapiens, UniProt P06276)
UniProt P06276, sequence (whole entry, looked up): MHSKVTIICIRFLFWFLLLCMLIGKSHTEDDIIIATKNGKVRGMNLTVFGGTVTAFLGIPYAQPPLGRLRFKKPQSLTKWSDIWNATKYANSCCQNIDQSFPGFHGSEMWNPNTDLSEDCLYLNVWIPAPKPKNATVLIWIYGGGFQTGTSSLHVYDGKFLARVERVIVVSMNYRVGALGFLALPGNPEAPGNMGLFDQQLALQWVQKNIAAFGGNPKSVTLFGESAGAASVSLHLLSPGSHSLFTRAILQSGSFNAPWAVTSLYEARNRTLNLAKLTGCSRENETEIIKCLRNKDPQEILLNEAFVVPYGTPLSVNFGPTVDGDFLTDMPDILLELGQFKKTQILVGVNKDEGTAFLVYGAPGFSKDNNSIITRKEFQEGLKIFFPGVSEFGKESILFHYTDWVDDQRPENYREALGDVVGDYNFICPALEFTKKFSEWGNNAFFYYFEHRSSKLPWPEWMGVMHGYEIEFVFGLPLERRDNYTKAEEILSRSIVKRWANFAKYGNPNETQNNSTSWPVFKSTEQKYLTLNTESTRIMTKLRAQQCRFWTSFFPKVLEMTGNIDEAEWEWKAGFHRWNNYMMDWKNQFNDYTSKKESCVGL

`Clc1ccc(Cl)c(-c2cc(Cl)ccc2Cl)c1` has a log K(PDMS-water) of 5.45 ± 0.03 (fresh water; 20 °C, SSP sampler, 100 µm).
The plasma concentration of `C1=Cc2nc1cc1ccc([n-]1)c(-c1ccccc1)c1nc(cc3ccc([n-]3)c2-c2ccccc2)C=C1.CC(=O)[O-].[Mn+3]` is reported as 35 ng/mL and 21 ng/mL (LC-MS/MS; Sprague-Dawley rat, plasma; oral gavage, dose not given, 30 min).
`CC(C)CC(=O)OC[C@H]1O[C@@](C#N)(c2ccc3c(N)ncnn23)[C@H](O)[C@@H]1O` — result for “recovery in bile”: 0% (Sprague-Dawley rat, male, bile; 80 mg/kg, time not given; relative to: dose).
`CO[C@H]1C[C@@H]2CC[C@@H](C)[C@@](O)(O2)C(=O)C(=O)N2CCCC[C@H]2C(=O)O[C@H]([C@H](C)C[C@@H]2CC[C@@H](OC(=O)NCCOCCOCCOCCOCCOCCOCCOCCOCCC(=O)N3CCc4cc(Cn5nc(-c6ccc7oc(N)nc7c6)c6c(N)ncnc65)ccc4C3)[C@H](OC)C2)C[C@@H](O)[C@H](C)/C=C(\C)[C@@H](O)[C@@H](OC)C(=O)[C@H](C)C[C@H](C)/C=C/C=C/C=C/1C`: “AEs leading to dose reduction” 0% (dose-escalation trial; patients with advanced solid tumours; intravenous, 1.6 mg/3 mg weekly, any grade).
`Clc1ccc(Cl)c(-c2cc(Cl)ccc2Cl)c1`: “relative organ weight” “no effect” (Sprague Dawley rat, spleen; intraperitoneal, 100 mg/kg, 3 weeks; relative to: vehicle).
With `COc1cccc(Oc2ccccc2NC(=O)CNC(=O)c2cccc3ccccc23)c1` the serum calcium was 9.3 mg/dL and 10.5 mg/dL (esterase-deficient SCID mice, male; oral, 15 mg/kg/day, 14 days, toxicity study).
`COc1cc(C2C3=C(COC3=O)N(CCO)c3cc4c(cc32)CCC4)cc(OC)c1OC` (stereo not drawn) has a body weight of 217 g (female Sprague-Dawley rats; intraperitoneal, 400 mg/kg, 72 h, single dose, mean).
`c1ccc(C2(c3ccccc3)CC2C2=NCCN2)cc1` (stereo not drawn) gave an IC50 of 13.4 ± 5.05 µM (BCHE; inhibitor; with Triton).
`Cc1cc(C)c(CNC(=O)c2cc(Cl)c3c(c2C)O[C@@](C)([C@H]2CC[C@H](N(C)C)CC2)O3)c(=O)[nH]1` has an Infection incidence of 0% (human, relapsed/refractory NHL; concentration not given, all TEAEs, grade 5).
For `C[C@@H]1NC(=O)[C@H](CCCCNC(=O)CO/N=C/C(=O)NCCCC[C@@H]2NC(=O)[C@@H](Cc3ccccc3)NC(=O)[C@H](CC(=O)O)NC(=O)CNC(=O)[C@H](CCCNC(=N)N)NC2=O)NC(=O)CNC(=O)[C@@H]2CCCN2C(=O)[C@H](CCCCNC(=O)CO/N=C/C(=O)NCCCC[C@@H]2NC(=O)[C@@H](Cc3ccccc3)NC(=O)[C@H](CC(=O)O)NC(=O)CNC(=O)[C@H](CCCNC(=N)N)NC2=O)NC(=O)[C@H](CCCCNC(=O)CN2CCCNCCNCCCNCC2)NC(=O)[C@H](CCCCNC(=O)CO/N=C/C(=O)NCCCC[C@@H]2NC(=O)[C@@H](Cc3ccccc3)NC(=O)[C@H](CC(=O)O)NC(=O)CNC(=O)[C@H](CCCNC(=N)N)NC2=O)NC(=O)CNC(=O)[C@@H]2CCCN2C(=O)[C@H](CCCCNC(=O)CO/N=C/C(=O)NCCCC[C@@H]2NC(=O)[C@@H](Cc3ccccc3)NC(=O)[C@H](CC(=O)O)NC(=O)CNC(=O)[C@H](CCCNC(=N)N)NC2=O)NC1=O` [copper-64 labelled], the tissue uptake was 0.77 ± 0.07 %ID/g (normal mice, heart; intravenous, 0.74 MBq, 3 h post-injection).
Under “literature range factor”, `Clc1ccc(-c2ccc(Cl)c(Cl)c2Cl)c(Cl)c1Cl` is recorded as 2 (polyethylene-water partitioning; PCB compilation; relative to: maximum over minimum K).
Under “grade 3 T-wave abnormality”, `COc1cc2c(Oc3ccc4[nH]c(C)cc4c3F)ccnc2cc1OCC1(N)CC1` is recorded as 0% (paediatric refractory sarcoma patients; 10 mg).
The IC50 of `Nc1c2c(nc3c1CCC3)CCCC2` is reported as 0.25 ± 0.16 µM (BCHE; inhibitor, fluorometric).
The body weight of `N.N.[Cl][Pt][Cl]` is reported as 25 g and 24 g and 23 g (mouse xenograft model; dose not given, day 4).
For `CC(C)C[C@@H]1NC(=O)CNC(=O)[C@H](CC(N)=O)NC(=O)[C@H](CCCNC(=N)N)NC(=O)[C@H]([C@@H](C)O)NC(=O)[C@@H]2CSSC[C@@H]3NC(=O)[C@H]([C@@H](C)O)NC(=O)CNC(=O)CNC(=O)[C@H](C(C)C)NC(=O)[C@@H]4CSSC[C@H](NC(=O)[C@H]([C@@H](C)O)NC(=O)[C@H](CSSC[C@H](NC(=O)[C@H](C(C)C)NC(=O)[C@@H]5CCCN5C1=O)C(=O)NCC(=O)N[C@@H](CCC(=O)O)C(=O)N[C@@H]([C@@H](C)O)C(=O)N4)NC(=O)CNC(=O)[C@@H]1CCCN1C(=O)[C@H]([C@@H](C)O)NC(=O)[C@H](CC(N)=O)NC3=O)C(=O)N[C@@H](CO)C(=O)N[C@@H](CCCCN)C(=O)N1CCC[C@H]1C(=O)N[C@@H](C(C)C)C(=O)N2`, the remaining peptide was 75.4 ± 1.7% (HPLC; ammonium bicarbonate 0.1 M; 180 µM, 7 days, pH 9.0, 37 °C, deamidation stability).
`C[C@]1(CO)Cc2ncn(-c3ccc(C#N)c(Cl)c3)c2C(=O)O1` — result for “drug-related Dizziness incidence”: 5.6% (Japanese subjects; dose not given, all doses total).
`CC/C(=C(\c1ccccc1)c1ccc(OCCN(C)C)cc1)c1ccccc1`: “elimination rate constant” 2.48e-05 s⁻¹ (CD-1 mouse, male, plasma; intraperitoneal, 3 mg/kg).
With `c1cc2ccc3ccc4ccc5cccc6c(c1)c2c3c4c56` the log K(PDMS-water) was 5.51 ± 0.09 (fresh water; 12 (unit not given), 20 °C).
`CN(C)CCOC(C)(c1ccccc1)c1ccccn1` (stereo not drawn) gave an IC50 of 5.01 µM (Plasmodium falciparum; GB4).
For `CC(=O)c1c(C)c2cnc(Nc3ccc(C4CCN(CCS(C)(=O)=O)CC4)cn3)nc2n(C2CCCC2)c1=O`, “elimination rate constant” read 3.33e-05 s⁻¹ (human, plasma; oral, 100 mg, day 1 single dose).
`O=[N+]([O-])c1cc2c3c(ccc2c2ccccc12)[C@@H](O)[C@H](O)C=C3` — result for “rats with mammary tumours”: 0% (female Sprague-Dawley rats; intramammary, 12.3 µmol per rat, 32 weeks, others).
The alpha half-life of `COc1ccc2c(c[n+](C)c3c4cc5c(cc4ccc23)OCO5)c1OC` is reported as 3.27 h (LC-MS/MS; rat, plasma).
The toxicity of `CN1CCN(c2ccc(Nc3nccc(-c4cccc(C#N)c4)n3)cc2C(F)(F)F)CC1` is reported as 0% (zebrafish embryos; 25 µM, 5 d).
With `CC[C@@H](C)[C@@H](NC(=O)[C@@H](Cc1ccc(O)cc1)NC(=O)[C@H]1CCCN1C(=O)[C@@H](CCCNC(=N)N)NC(=O)[C@H](N)Cc1c[nH]cn1)C(=O)N[C@H](C)C(=O)N[C@H](Cc1c[nH]cn1)C(=O)N[C@H](CCCNC(=N)N)C(=O)N[C@H](CCCCNC(=O)c1cccc(S(=O)(=O)F)c1)C(=O)N[C@H](Cc1ccc(O)cc1)C(=O)N[C@H](CO)C(=O)N[C@H](Cc1ccccc1)C(N)=O` the remaining compound was 109% and 110% (10% human serum; 72 h).
`Cc1scc2c1N(C(=O)CN1CCN(C)CC1)c1ccccc1NC2=O` has an IC50 of 3.98 µM (Plasmodium falciparum; D10).
Under “median amount excreted in urine”, `N=C(N)NCCC[C@@H](NC(=O)[C@@H](N)Cc1ccccc1)C(=O)N[C@@H](Cc1ccccc1)C(=O)N[C@@H](CCCCN)C(N)=O` is recorded as 1.02e+06 ng (LC-MS; human; 5 mg, 5.833 h).
`COc1ccc(-c2c(-c3ccc(C#N)c(F)c3)nc(N3CCC(N)CC3)n(C)c2=O)cc1F` — result for “any-grade TRAE incidence”: 68% (item: ≥1 event; human patients; oral, dose not given, dose escalation).
Under “lung eosinophilic infiltration score”, `CC[C@H](C)[C@@H]1NC(=O)[C@@H]2CSSC[C@H](NC(=O)[C@H](CCCNC(=N)N)NC(=O)[C@@H]3CSSC[C@H](NC1=O)C(=O)N[C@@H]([C@@H](C)O)C(=O)N[C@@H](CCCNC(=N)N)C(=O)NCC(=O)N[C@@H](Cc1ccccc1)C(=O)N3)C(=O)N[C@@H](CC(C)C)C(=O)N[C@H]1CSSC[C@H](NC(=O)[C@H](C(C)C)NC(=O)CNC(=O)[C@H](CCCNC(=N)N)NC(=O)[C@H](CCCNC(=N)N)NC1=O)C(=O)N[C@@H](CCCNC(=N)N)C(=O)N2` is recorded as 1 to 3 (Sprague-Dawley rat, male, lung; 10 mg/kg, perivascular, peribronchiolar; direction not given).
For `C[C@@H](NC(=O)N1C(=O)[C@H](Cc2ccnc(N)c2)[C@H]1C(=O)O)C1CCCCC1`, “incidence of elevated neutrophil” read 0% (healthy adult Chinese volunteers; continuous intravenous infusion, 2.25 mg/kg/h, 5-day infusion, CTCAE 5.0 grading).
The DT50 sediment of `COc1ccnc(C(=O)N[C@H]2COC(=O)[C@H](Cc3ccccc3)[C@@H](OC(=O)C(C)C)[C@H](C)OC2=O)c1OCOC(=O)C(C)C` is reported as 0.91 days (Staffordshire loam sediment, aerobic dark; 20 °C).
`O=C(O)CCCOc1ccc(F)cc1-c1cc(-c2ccccc2C(F)(F)F)n(-c2ccccc2)n1` has a leukocyte differential of 2.5 ± 0.4% (item: Monocytes; Crl:CD(SD) rats, female, blood; iv, 25 µg/kg, 14 days).
`CN1CC[C@@H](c2c(O)cc(O)c3c(=O)cc(-c4ccc(C(F)(F)F)cc4Cl)oc23)[C@@H]1CO`: “patients with adverse event” 12.5% (item: Diarrhea; B-cell malignancies or AML; oral, 100 mg, continuous dosing).
Under “daily dermal exposure dose”, `CC(C)(C)c1cc(-n2nc3ccccc3n2)c(O)c(C(C)(C)C)c1` is recorded as 19.1 ng/kg/day (human aged 6-11 years; concentration not given, spray sunscreen, 95th percentile).

Repeated from above:
Under “grade 3 T-wave abnormality”, `COc1cc2c(Oc3ccc4[nH]c(C)cc4c3F)ccnc2cc1OCC1(N)CC1` is recorded as 0% (paediatric refractory sarcoma patients; 10 mg).
For `CC(=O)c1c(C)c2cnc(Nc3ccc(C4CCN(CCS(C)(=O)=O)CC4)cn3)nc2n(C2CCCC2)c1=O`, “elimination rate constant” read 3.33e-05 s⁻¹ (human, plasma; oral, 100 mg, day 1 single dose).
For `C[C@@H]1NC(=O)[C@H](CCCCNC(=O)CO/N=C/C(=O)NCCCC[C@@H]2NC(=O)[C@@H](Cc3ccccc3)NC(=O)[C@H](CC(=O)O)NC(=O)CNC(=O)[C@H](CCCNC(=N)N)NC2=O)NC(=O)CNC(=O)[C@@H]2CCCN2C(=O)[C@H](CCCCNC(=O)CO/N=C/C(=O)NCCCC[C@@H]2NC(=O)[C@@H](Cc3ccccc3)NC(=O)[C@H](CC(=O)O)NC(=O)CNC(=O)[C@H](CCCNC(=N)N)NC2=O)NC(=O)[C@H](CCCCNC(=O)CN2CCCNCCNCCCNCC2)NC(=O)[C@H](CCCCNC(=O)CO/N=C/C(=O)NCCCC[C@@H]2NC(=O)[C@@H](Cc3ccccc3)NC(=O)[C@H](CC(=O)O)NC(=O)CNC(=O)[C@H](CCCNC(=N)N)NC2=O)NC(=O)CNC(=O)[C@@H]2CCCN2C(=O)[C@H](CCCCNC(=O)CO/N=C/C(=O)NCCCC[C@@H]2NC(=O)[C@@H](Cc3ccccc3)NC(=O)[C@H](CC(=O)O)NC(=O)CNC(=O)[C@H](CCCNC(=N)N)NC2=O)NC1=O` [copper-64 labelled], the tissue uptake was 0.77 ± 0.07 %ID/g (normal mice, heart; intravenous, 0.74 MBq, 3 h post-injection).
